Measured values pooled from the literature.
A part holds a random share of what one study measured. Substitutions count along the parent as printed.

Series 1 — technique: RNA Bind-n-Seq; molecule type: RNA; sample: in vitro; tested at: not given; reference: input RNA pool; reading: higher = stronger binding
Target: RING finger protein unkempt homolog, zinc fingers 1-6, GST-SBP tag (UNK, Homo sapiens, UniProt Q9C0B0, residues 30-357)
Notes: RNA with constant flanks, human and mouse sites, ends assumed
Constant ends, left off below: GGGAGUUCUACAGUCCGACGAUC … CAACAGAGGAUUGAGCAUCA
Target sequence (chain): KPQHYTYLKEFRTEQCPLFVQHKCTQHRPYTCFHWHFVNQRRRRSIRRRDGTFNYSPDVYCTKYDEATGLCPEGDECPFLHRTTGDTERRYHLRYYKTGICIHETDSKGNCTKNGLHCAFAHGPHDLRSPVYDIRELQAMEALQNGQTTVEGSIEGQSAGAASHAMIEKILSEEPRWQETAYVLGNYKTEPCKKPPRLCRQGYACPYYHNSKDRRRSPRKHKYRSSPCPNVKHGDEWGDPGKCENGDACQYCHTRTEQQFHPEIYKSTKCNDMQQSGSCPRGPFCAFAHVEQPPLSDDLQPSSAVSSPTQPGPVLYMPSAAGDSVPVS
| Sequence | bound/input enrichment [ratio] |
| --- | --- |
| UAGCCCAAUUCUGCCCCUCCAUCCCAAGGGGCAGAGAAAUUGUCUUUCUUUGCUGACUCCUACGAGGAAAAAAAAAAAAAAAAAAAAAACAAUUAAAGGGAAAGAUAAACGGAGACGGAG | 0.877 |
| GAAGAUGGUGGUUGUACAUUAUUCAUCUAGAAAAUAUAAAAAUUCAUUUUGUUUUGAAGCUAGUUAUUAAACUGGAAUAGCAGUUAUAUCCCUGAGAAUGGGGCCCUUCUCUUGACAUUC | 16.7 |
| UUUCACAUGAAAGAAGUGGUGGCUGCUAAAAAAAAAGCUACAGUGUUUAUUAAGGGUCUUUUUGAUUUAUGUAAAUAUUUGUAAAUUGGUCAGUGCCUGUAAAUUUAAAUAUAAAAAGUA | 0.419 |
| CUGAACAGUAUUUUGCAACAUGCAAAAGAUUUUAAGGAAUAUCAUCGGUCUGUGGCCGGAAAGAUCCAGAAGCUCUCCAAAGCAGUGGCAACUUGGCAUGCCAACACUGAAAGAGAGCAG | 0.108 |
| AGGAGGAGGUUAAAGGGUGAGAGUGGGGUGGAAGACUGUGUCAUGGCUCUGGAGACACUGUUCAGUGUCCUGCUUUCUCUGUGCAGACUGAUGGCCCCUUACACGCCCUUUCUGACUGAG | 0.0603 |
| ACAGGUGGUCGUAAUGGUUAUGGUGCAAAACUUUGUAAUAUUUUCAGUACAAAGUUUACAGUAGAAACAGCUUGCAAAGAAUACAAACACAGUUUUAAGCAGACAUGGAUGAAUAAUAUG | 0.258 |
| CGGAAAUAAUGCAAAAGGUGUCCCAAGGCUCCUGACCAGUGAACAAAGAUUUGAGAAAGACAGCCAAGCUCAUGUUUUCUCCUGAUCAAGAAAAUCAUCCAUCUAAAGCACCAGUAAAAU | 0.194 |
| GCGGCCUCAUUGCUACGAUUUCAGAGUACCCUGGUAAUAGCUGAGCAUGCAAAUGAUUCCCUAGCACCCAUUACUUUAAAUACCAUUACUGCAGCCACACGCCUUGGAGGUGAAGUGUCC | 2.17 |

Series 2 — technique: RNA Bind-n-Seq; molecule type: RNA; sample: in vitro; tested at: 365 nM; reference: no-protein control; reading: higher = stronger binding
Target: RNA binding protein fox-1 homolog 2, RRM domain, GST-SBP tag (RBFOX2, Homo sapiens, UniProt O43251-10, residues 100-194)
Notes: natural RNA segment, single round, ends assumed
Constant ends, left off below: GGGAGUUCUACAGUCCGACGAUC … UGGAAUUCUCGGGUGCCAA
Residues (chain): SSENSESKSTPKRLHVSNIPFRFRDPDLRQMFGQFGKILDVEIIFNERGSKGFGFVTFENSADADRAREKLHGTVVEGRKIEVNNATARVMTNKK
| Sequence | RBNS enrichment (R) |
| --- | --- |
| UAUGUAAAUAAUGUGUAAAGCCAGUUUUUAUGAUUAAGGAAUCAAAUUUAUUGAAUUUUAUUAUUGAAAGUUGAAACUUAACAUGUAUGAACAAAAACCAAUAAAAGAAU | 0.409 |
| AUGCCCAGCAAUCACCCUCCUCACUUCCUUGUCUAGAUGUAGAGGUCAGGCUGCUGAACCAGCCAACACAUGGGCUACUGCUGGGAAGCCUGGGCUGUUUUUUUUCUUAA | 0.3 |
| UGGAAGCCAAAUGUACUCAUGAAAACAGCCACUCCUAUUCUGAGUCUUGGUUUCUUCACCUAGAAAGUGAGGGUUUGGACUAGAUGAGUGGCUUUCAGGGUGUUCUGUGA | 0.239 |
| AGAGCCUGCAUGUGUAUGCCGUCCUCCCCUGGUCCGGUGUUUGUGUUCCCCACCCCUCACAGACUGCCUGAGCUCUUCUGUAAGCUGGGGUAGGGUGAUGGCAGUGCUCC | 5.81 |
| UCUGUAACCAACCUUUAUCUGGCAUCAUAAUUGCAGCACAAUAAUGAUUUGCAUGAUAUCUUGAAACUGGGGGAAGGGGGCAUGCCAAGUUGGGCAUCACUUCGUCUUAG | 1.01 |
| CUGUCUAGUGCGUGCUAUCUGUGUGGGGAGAAGCUUCGUGAAUAUGCACCGUUUUGAUGCCCAUGCAACAGUGAGGAAGAAAAACCCUCGAGACAUUUUUUCUGUACUCA | 0.996 |
| GUGUUCUAGAUUUAGCUAUUUAUUGUUUGCGGCCUGCAUGCUGAAACAGUGCUUACGUUGUCUCCAUGUGUACGGGGCCUGUGUGGAUGGUCGUAUGUUUUGCACAUUUU | 9.65 |
| GCAUUUUACUUAAAUUUUACUGUUUGCAAGUAGUCUAUAGAAAUUUUGUUUUAAGUCUUCAAAUAUCUUGAGAAAUAGUAGACUGUAUGUUGAAAAUUGUACUGAAAUAA | 0.503 |

Series 3 — technique: protein binding microarray; molecule type: double-stranded DNA, one strand shown; sample: in vitro; tested at: not given; reference: not given; reading: higher = stronger binding
Target: Histone acetyltransferase KAT6A, winged helix 1, GST fusion (KAT6A, Homo sapiens, UniProt Q92794, residues 1-85)
Notes: 8-mer, flanks averaged, mean of 2 arrays, mostly near background
Target sequence (chain): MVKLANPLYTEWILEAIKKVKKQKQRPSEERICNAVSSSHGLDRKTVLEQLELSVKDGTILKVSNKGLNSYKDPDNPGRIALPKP
| Sequence | E-score |
| --- | --- |
| CGAATCGA | -0.0743 |
| GCAGCCGC | 0.307 |
| CGGCTGGA | 0.264 |
| CACCCCGG | 0.174 |
| TCCGGGCA | 0.0758 |
| TCCAATCA | -0.0545 |
| CGCCGATC | 0.352 |
| ACCACGAG | -0.0896 |
| ACGCCATA | 0.078 |
| AACTTTCC | -0.0987 |
| ATCCATCA | -0.0775 |
| TACTGTCA | -0.0908 |
| CACGTGAG | -0.139 |
| AGACATGG | -0.163 |
| CTATATAG | -0.214 |
| TACGTGCA | -0.0653 |

Series 4 — target: CCNA1, cyclin fold, Cln2 fusion (human); technique: yeast growth competition, sequencing; sample: yeast; notes: weak parent motif; reference: not given; reading: higher = stronger binding
Starting sequence: WEE1 docking peptide (human); CTLRQKLIFSPCS
| Substitution | normalised enrichment score |
| --- | --- |
| CTLRQKLAFSPCS [I8A] | -0.0715 |
| CALRQKLIFSPCS [T2A] | -0.196 |
| CTLRQKLIFSPAS [C12A] | -0.211 |
| CTLRAKLIFSPCS [Q5A] | -0.0143 |
| CTLRQKLIFAPCS [S10A] | 0.0163 |
| CTLRQKAIFSPCS [L7A] | -0.0585 |

Further values, each from its own experiment
| Substance | target | assay | test system | setting | scale | measurement | value |
| --- | --- | --- | --- | --- | --- | --- | --- |
| PhoQ, residues 284 288 289 292 302 303 SLANIV | PhoP, residues 12 14 15 18 19 SGWQI (Escherichia coli, UniProt P23836) | Sort-seq, measured: YFP reporter | E. coli | PhoQ-PhoP variant library, added: 10 µM Mg2+ | reference: high Mg2+ state, higher = stronger signaling | fold induction | 3.13 |
